Assay results of several laboratories.
A part holds a random share of what one study measured.

Set 1 — method: RNA Bind-n-Seq; form: RNA; matrix: in vitro; concentration: 200 nM; notes: whole 134-nt RNA, ends assumed; added: 150 mM LiCl; baseline: input library; direction: higher = stronger binding; each molecule: 7-deaza-guanosine replaces G
Target: Fragile X messenger ribonucleoprotein 1, C-terminal low-complexity region (Fmr1, Mus musculus, UniProt P35922)
Oligonucleotide | log2 enrichment
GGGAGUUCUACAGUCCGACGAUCCACAGACAACACGCACCCACACAGACACAGAGGGAAGGGGUUGGUAUGGGGACAGGGUGCACAGCAGGGCGGGGUAGGACCCCAGCCCCUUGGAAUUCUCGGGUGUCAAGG | -1.34
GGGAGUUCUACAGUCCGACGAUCACCAUGCAGGUGGGCAUCUUUGGGAAGUGGGGCAAGGGGGGGAUAGGGCGGGGGGUAACACUUUGGGAACAGGUGGUCCCAGGUCGUUUCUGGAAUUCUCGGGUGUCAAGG | 1.35
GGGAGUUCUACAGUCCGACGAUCCCUGUGCUACACAUCGUAUGUACCGAAUCGGGUUUUUUGGGGUUUUUUGGGGUUUUUUGGGAAAGUAUUAUGUUACGCCGUUCGGAUCUGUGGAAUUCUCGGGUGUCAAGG | -0.201
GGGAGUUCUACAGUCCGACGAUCCCUGUGCUACACAUCGUAUGUACCGAAUCGGGAAAAAAAGGAAAAAAAGGGGAAAAAAAGGAAAGUAUUAUGUUACGCCGUUCGGAUCUGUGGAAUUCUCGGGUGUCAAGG | -0.0238
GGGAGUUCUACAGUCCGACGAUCUGGCCCUGGUGGCAUGCGGGGAGGAAGAGGUGGCCUCAUGGAUCGUGGUGGUCCCGGAGGAAUGUUCAGAGGUGGCCGUGGUGGAGACAGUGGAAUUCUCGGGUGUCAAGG | -0.578
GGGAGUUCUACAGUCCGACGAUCUCAAGUCCUGUGCUACACAUCGUAUGUACCGAAUCGGUGGAAAAAAAGGAAAGGAAAGUAUUAUGUUACGCCGUUCGGAUCUGCACUUCCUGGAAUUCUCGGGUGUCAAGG | -1.31
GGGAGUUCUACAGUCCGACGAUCCAAGUCCUGUGCUACACAUCGUAUGUACCGAAUCGGUUUGGGGUUUGGGGUUUGGGAAAGUAUUAUGUUACGCCGUUCGGAUCUGCACUUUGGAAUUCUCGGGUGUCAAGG | -1.98
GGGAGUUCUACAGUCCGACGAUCUCAAGUCCUGUGCUACACAUCGUAUGUACCGAAUCGGGAAAAAGGGUGGGAGGGAAAGUAUUAUGUUACGCCGUUCGGAUCUGCACUUCCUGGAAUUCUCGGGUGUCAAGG | -0.958

Set 2 — method: protein binding microarray; form: double-stranded DNA, one strand shown; matrix: in vitro; concentration: not given; baseline: not given; direction: higher = stronger binding
Target: Histone acetyltransferase KAT6A, winged helix 2, GST fusion (KAT6A, Homo sapiens, UniProt Q92794, residues 85-181)
Notes: 8-mer, flanks averaged, mean of 2 arrays, mostly near background
Residues (chain): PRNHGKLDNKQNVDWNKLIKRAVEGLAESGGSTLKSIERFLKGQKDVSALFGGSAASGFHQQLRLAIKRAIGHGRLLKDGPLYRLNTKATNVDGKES
Oligonucleotide | E-score
CAATGATC | -0.0926
AAGGTCCA | 0.0782
ATTCGGGA | 0.0869
GCAAGACA | 0.0299
CTTCGATC | 0.0705
CCAGCGCA | 0.0664
AACACGTT | -0.157
ACGGAGAC | 0.101
GTCGCTAA | 0.0845
ATAAACTG | 0.146
AGCTATCA | 0.0372
ATACATCA | 0.0277
AATAATGT | 0.0272
AAAGCAGG | 0.101
CTGTATGC | 0.02
CATGGGGG | -0.00614
AGGTGTCC | -0.0317

Set 3 — method: RNAcompete; form: RNA; matrix: in vitro; concentration: 20 nM; notes: 7-mer, probes averaged, single round; baseline: mean of 7-mers; direction: higher = stronger binding
Target: PABPC1L2, full length, GST fusion (mouse, UniProt A0ABA7IW68)
Residues (chain): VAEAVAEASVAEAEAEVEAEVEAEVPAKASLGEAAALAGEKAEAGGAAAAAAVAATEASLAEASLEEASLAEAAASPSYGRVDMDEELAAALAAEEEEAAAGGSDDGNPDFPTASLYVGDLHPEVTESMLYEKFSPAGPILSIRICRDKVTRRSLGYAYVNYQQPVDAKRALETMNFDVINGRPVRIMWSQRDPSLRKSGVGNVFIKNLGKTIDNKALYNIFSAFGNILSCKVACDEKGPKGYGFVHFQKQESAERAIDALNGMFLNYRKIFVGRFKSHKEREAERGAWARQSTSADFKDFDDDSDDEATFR
Oligonucleotide | 7-mer Z-score
AUCGUGG | -0.122
UCCGUGU | -0.396
GUACAGU | -0.311
GCGGCAA | 0.537
GAUAUAG | -0.182
UAGUUGA | -0.309
GCUAUAU | -0.0971
CCACCAU | -0.253
GUAAGCC | -0.356
UGGAUAA | 0.358
AUCCCCG | -0.441
AAACAGU | 3
GCAAGAG | 0.186
GCGACGA | 0.385
ACGAACG | -0.139
GCUAUGU | -0.155
GCUACGC | -0.224
CCUCGUU | -0.474
GGUUGUC | -0.293
GCGCGAC | -0.0482
GUACGGA | 0.173
AAAUCCG | 0.421
UCUAUCU | -0.391
GGUAUAA | 0.269
GGCGGCC | -0.26

Set 4 — method: protein-binding microarray; form: double-stranded DNA, one strand shown; matrix: in vitro; concentration: 2540 nM top; notes: 60-bp whole probe; added: salmon DNA 0.4 mg/ml; baseline: random background probes; direction: higher = stronger binding; constant ends, left off below: GCCTAGCAC … GTCTTGATTCGCTTGACGCTGCTG
Target: Interferon regulatory factor 3, full length, phosphomimetic (IRF3, Homo sapiens, UniProt Q14653, residues 1-427, S386D/S396D/S398D/S402D/T404D/S405D)
Residues (chain): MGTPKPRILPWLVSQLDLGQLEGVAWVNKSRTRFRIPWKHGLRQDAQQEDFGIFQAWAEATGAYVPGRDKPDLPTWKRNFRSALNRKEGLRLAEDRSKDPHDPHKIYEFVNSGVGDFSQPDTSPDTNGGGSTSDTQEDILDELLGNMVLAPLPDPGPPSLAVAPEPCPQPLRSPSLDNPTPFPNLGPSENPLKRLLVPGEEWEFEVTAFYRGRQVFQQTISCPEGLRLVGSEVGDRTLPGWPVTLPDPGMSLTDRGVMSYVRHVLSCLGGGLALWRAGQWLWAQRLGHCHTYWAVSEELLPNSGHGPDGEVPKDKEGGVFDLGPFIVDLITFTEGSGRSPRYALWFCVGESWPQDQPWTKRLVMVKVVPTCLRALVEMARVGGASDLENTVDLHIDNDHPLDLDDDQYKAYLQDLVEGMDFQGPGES
Oligonucleotide | fitted relative affinity
TTGGGTATCCTTCTCCTTTAGTGCTAG | 5.86 z-score
GATGGGCTACCTCTCTTAGAGTGCTAG | -0.821 z-score
TTAGATATCGGACTGGATTAGTGCTAG | 0.201 z-score
GACGGTTTCGGACCGGGGACGTGCTAG | 3.43 z-score
GACGGTCTCCTTCTGCTGACGTGCTAG | 2.33 z-score
GACGATAGCAGACTGGAGACGTGCTAG | -0.642 z-score
TCACTCGTGTTTTTCTCACTGTGCTAG | 0.0438 z-score
GTCGATCTCAGTATCGAGACGTGCTAG | 1.69 z-score
TTAGATTTCGGGTATCGATTCGTGCTA | 1.88 z-score
TTAGGTATCGGGACTGGGCTAGTGCTA | 1.04 z-score
CTCTTTCTCTGCTACCCTCTGGTGCTA | 2.35 z-score
TCAACTTTAAATTAGACACTGTGCTAG | 0.187 z-score
GTTAGAATGTCCTTTCTCCATGTGCTA | 3.85 z-score
TTAGATTTCAGTTCGGATTAGTGCTAG | 1.71 z-score
GACGGTCTCCTTTTCTTGACGTGCTAG | 4.62 z-score
TTAGGTATCGGTCTCCGTTAGTGCTAG | 4.26 z-score
TCATTTTTCTATATGCAACTGTGCTAG | 2.03 z-score
TCATTTTTTGGAATGTCACTGTGCTAG | 1.18 z-score
TTAGATCTCAGACTGGTTTAGTGCTAG | 0.00362 z-score

Set 5 — method: RNA Bind-n-Seq; form: RNA; matrix: in vitro; concentration: 365 nM; baseline: no-protein control; direction: higher = stronger binding
Target: RNA binding protein fox-1 homolog 2, RRM domain, GST-SBP tag (RBFOX2, Homo sapiens, UniProt O43251-10, residues 100-194)
Notes: natural RNA segment, single round, ends assumed
Oligonucleotide | RBNS enrichment (R)
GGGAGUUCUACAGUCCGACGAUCAGGUACCAAUCAUUGAUUUUUCUUUUGUAAACUAAAACGUUUAAAAUAAAAUAGCAUUUACAGUUUCUACAGACUGGUGGAACUUAAAUGAACCUGUCUUACUGUAGAAGUGGAAUUCUCGGGUGCCAA | 0.704
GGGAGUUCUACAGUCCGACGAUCAAGUUGUUGUGUUUUUUUUUAAAUAGUAGUUUGUAGUAUUUUAAAGAAAGAACAGAUCGAGUUCUAAUUAUGAUCUAGCUUGAUUUUGUGUUGAUCCAAAUUUGCAUAGCUGGAAUUCUCGGGUGCCAA | 4.32
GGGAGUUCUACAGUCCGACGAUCUACCUGCUCCCCGCUCCUGUUGCCAGCAGCACUCACUGCACUCCUUUGUCAUAUACUCUGCAUCACUGUCAUACUCACAACUUCGUGAAUAAAGUUGUGUGCUUUAUUCGUGGAAUUCUCGGGUGCCAA | 0.98
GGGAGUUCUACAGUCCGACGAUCGCCCACCAAUCAACAUUCAGAUCAGCAUCAGCACCCACCCCACUUCCUGACAAAUCUGAUUUUUCUAGAAUCCUGUUCUUCCCUCACCUUAGGGAAGGAGAAUGUUUGUCUGGAAUUCUCGGGUGCCAA | 0.633
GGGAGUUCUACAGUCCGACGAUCCCCACACUCCCUUCCAGGCCGUGGCCUUCGCUUCCUCAUUAGAAUCAGGAGAGUGAGGCACAGUGUCCAUCAUGCCAUUUAAUCUUGUGCCUGCCCUUUCCAGCCUCUUCUGGAAUUCUCGGGUGCCAA | 0.41
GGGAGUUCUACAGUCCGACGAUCGAGGUCACCGUGUCCAGUCCUUUGCCUCACCCCCACUGCCCCAGUCUGUAUGCACUGAAAAACGUCGGGUUCUGGGUCUACAAAGCCCCUGCUGCCUGUGUUUGAGGUCUUGGAAUUCUCGGGUGCCAA | 0.527
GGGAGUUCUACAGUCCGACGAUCAAUUUUGUCAUAUCUAUUAGGCCAGAAAGUAAUCACUGAAGAAGCAGAUGGUAGGAGCUGGAGCAAGGUGGUCCACAGGGGAAUGCCUCUCCUGUGCCCAUUUUAUAAUAUGGAAUUCUCGGGUGCCAA | 0.524
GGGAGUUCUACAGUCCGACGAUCUCAUCUAUCCUCUAUCUGUAUCAAGCUCACUGCGGAUCCUGCUGUAAAACUGGUGGGUAGCUGGGCUGUCCGUUACCACCACAGCUACAUCUUCUGUUUCUUUGAAUAGAUGGAAUUCUCGGGUGCCAA | 0.414

Excerpt of the above (set 4):
Oligonucleotide | fitted relative affinity
GACGGTCTCCTTTTCTTGACGTGCTAG | 4.62 z-score
TTAGATATCGGACTGGATTAGTGCTAG | 0.201 z-score
GACGGTTTCGGACCGGGGACGTGCTAG | 3.43 z-score
GACGATAGCAGACTGGAGACGTGCTAG | -0.642 z-score
TCAACTTTAAATTAGACACTGTGCTAG | 0.187 z-score
GACGGTCTCCTTCTGCTGACGTGCTAG | 2.33 z-score
GTCGATCTCAGTATCGAGACGTGCTAG | 1.69 z-score
